Results gathered from unrelated publications.
Parts stem from different laboratories: compare values within a part only.

Series 1
Target: Protein C-ets-1 (ETS1, Homo sapiens, UniProt P14921, residues 1-441, K379A, full length assumed)
Technique: protein-binding microarray
Form: double-stranded DNA, one strand shown
Sample: in vitro
Concentration: not given
Setting: k-mer, scored over probes, only values ≥0.25
Reading: higher = stronger binding
Target sequence (chain): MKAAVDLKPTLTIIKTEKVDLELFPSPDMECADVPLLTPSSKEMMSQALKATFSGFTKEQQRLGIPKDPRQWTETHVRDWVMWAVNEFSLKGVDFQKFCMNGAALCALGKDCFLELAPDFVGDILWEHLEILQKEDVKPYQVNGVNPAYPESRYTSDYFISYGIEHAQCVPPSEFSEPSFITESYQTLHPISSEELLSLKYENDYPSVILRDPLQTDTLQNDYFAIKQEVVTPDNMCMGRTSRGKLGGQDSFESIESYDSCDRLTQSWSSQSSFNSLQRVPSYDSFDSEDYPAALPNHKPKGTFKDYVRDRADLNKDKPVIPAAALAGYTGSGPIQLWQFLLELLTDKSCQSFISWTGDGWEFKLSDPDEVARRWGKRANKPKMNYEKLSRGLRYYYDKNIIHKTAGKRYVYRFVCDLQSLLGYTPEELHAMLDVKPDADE
Oligonucleotide | E-score
GGTAAAGA | 0.251
CCAACACA | 0.258
ATACCGGA | 0.397
ACTCCGGG | 0.339
CCGGTGAC | 0.381
TGAATTCA | 0.312
GTGGGGTA | 0.324
ATCCGCCC | 0.301
CGGAAGTA | 0.329
CGACACCG | 0.309
GATGTCAC | 0.31
ATGACAAC | 0.253
CATGATAA | 0.26
ATACCGGC | 0.394
AGTTACCG | 0.285
AATTACCG | 0.326

Series 2
Target: Ras GTPase-activating protein-binding protein 1, RRM domain (G3BP1, Homo sapiens, UniProt Q13283)
UniProt Q13283, sequence (whole entry, looked up): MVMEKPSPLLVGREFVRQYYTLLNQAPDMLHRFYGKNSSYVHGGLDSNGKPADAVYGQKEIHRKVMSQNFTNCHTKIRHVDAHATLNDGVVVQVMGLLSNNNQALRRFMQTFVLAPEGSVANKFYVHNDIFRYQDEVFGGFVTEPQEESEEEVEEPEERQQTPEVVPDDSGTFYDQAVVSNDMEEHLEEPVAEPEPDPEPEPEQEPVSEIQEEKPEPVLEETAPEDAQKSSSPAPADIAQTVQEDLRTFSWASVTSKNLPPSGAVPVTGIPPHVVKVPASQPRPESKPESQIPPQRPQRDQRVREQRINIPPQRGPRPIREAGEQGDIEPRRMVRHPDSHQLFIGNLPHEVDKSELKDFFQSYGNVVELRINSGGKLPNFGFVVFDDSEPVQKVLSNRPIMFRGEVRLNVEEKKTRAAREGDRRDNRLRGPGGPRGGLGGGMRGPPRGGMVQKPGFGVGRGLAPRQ
Technique: RNA Bind-n-Seq
Form: RNA
Sample: in vitro
Concentration: 1 µM
Setting: whole 134-nt RNA, ends assumed
Added: 150 mM KCl
Reference: input library
Reading: higher = stronger binding
Shared flanks, not repeated: GGGAGUUCUACAGUCCGACGAUC … UGGAAUUCUCGGGUGUCAAGG
Oligonucleotide | log2 enrichment
UGGCCCUGGUGCCAUGCGGGGAGGAAGAGGUGGCCUCAUGGAUCGUGGUGGUCCCGGUGGAAUGUUCAGAGGUGGCCGUGGUGGAGACAG | 0.752
AAGUCCUGUGCUACACAUCGUAUGUACCGAAUCGGCCCCGGCCCCGGGGCCCCGGGAAAGUAUUAUGUUACGCCGUUCGGAUCUGCACUU | -0.518
AGUCCUGUGCUACACAUCGUAUGUACCGAAUCGGGUUUUUGGGAAAGGGUUUUUGGGAAAGUAUUAUGUUACGCCGUUCGGAUCUGCACU | 0.396
CAAGUCCUGUGCUACACAUCGUAUGUACCGAAUCGGGAAAAAGGGAAAGGGUGGGAAAGUAUUAUGUUACGCCGUUCGGAUCUGCACUUC | 0.959
CUGUGCUACACAUCGUAUGUACCGAAUCGGGGCCCCCCCGGGGCCCCCCCGGGCCCCCCCGGAAAGUAUUAUGUUACGCCGUUCGGAUCU | -0.565
UCAAGUCCUGUGCUACACAUCGUAUGUACCGAAUCGGGGUUGGGUUGGGUUGGGGAAAGUAUUAUGUUACGCCGUUCGGAUCUGCACUUC | 0.742
CACAGACAACACGCACCCACACAAAAACAGAGGGAAGGGGUUGGGAUGGGGACAGGGUGCACAGCAGGGCGGGGUAGGACCCCAGCCCCU | -0.112
CUGUGCUACACAUCGUAUGUACCGAAUCGGGAAAAAAAGGAAAAAAAGGGGAAAAAAAGGGGAAAGUAUUAUGUUACGCCGUUCGGAUCU | 0.147
CCUGUGCUACACAUCGUAUGUACCGAAUCGGGAAAAAAAGGGAAAAAAAGGAAAAAAAGGAAAGUAUUAUGUUACGCCGUUCGGAUCUGC | 0.13
CAAGUCCUGUGCUACACAUCGUAUGUACCGAAUCGGGAAAGGGAAAGGGAAAGGGGAAAGUAUUAUGUUACGCCGUUCGGAUCUGCACUU | 0.631

Series 3
Target: Interferon regulatory factor 5, full length, phosphomimetic (IRF5, Homo sapiens, UniProt Q13568-2, residues 1-514, K96S/S451D/S453D/S456D/S462D)
Technique: protein-binding microarray
Form: double-stranded DNA, one strand shown
Sample: in vitro
Concentration: 250 nM
Setting: 60-bp whole probe
Added: salmon DNA 0.4 mg/ml
Reference: random background probes
Reading: higher = stronger binding
Shared flanks, not repeated: GCCTAGCAC … GTCTTGATTCGCTTGACGCTGCTG
Oligonucleotide | log fluorescence [z-score]
GACGGACTGGACTATAGGGACGTGCTA | -0.564
GACGAACTTAGTCTCGAGACGTGCTAG | 0.0574
GACGGTCTCCTTTTCCTGAGGTGCTAG | 0.0533
GACGGTTTCGGACTGGGGACGTGCTAG | 3.93
GACGGACTGCTACTGCAGACGTGCTAG | -0.697
AGAGTAAATTAAGTTAGAACGTGCTAG | -0.025
TTAAGTTTCCTTCTCCTTTAGTGCTAG | 1.92
GACGGTCTCCTTCTTCTGACGTGCTAG | 0.192
GACGGTAACGACACTGGGGACGTGCTA | 0.0244
TCAGCTCTGGCACCTCTAACTGTGCTA | -0.365
GACGATTTCAATCTCGAGACGTGCTAG | 0.693
GACGGTATCGGACTGCGGACGTGCTAG | 1.1
CTGTTTTTGCTTTCTTTTTGGTGCTAG | 2.69
GACAGTATCGGGTTTCGGGACGTGCTA | 6.38
TTAGATATCACTCTCGATTAGTGCTAG | 2.5
GACGGCCTCCTTTTCCTGACGTGCTAG | -0.217
TCAGCTGTGGGTTTGAGACTGTGCTAG | -0.378
GACGGACTGCTTTTCCTTACGTGCTAG | 0.0522
GACGGTCGCGGTTTCGGGACGTGCTAG | 2.04
TTAGATTTCGGGACTGAATTAGTGCTA | 3.03
GACGATCTCAGTTTCGATACGTGCTAG | 8.88
GACGCTTTCGGGTTTCGAGACGTGCTA | 8.65
TCAAGTGTGCCATATTTAACTGTGCTA | 0.464
TTAGGCTTCGGACTGGGTTAGTGCTAG | -0.268
TGAAGACTCTCTTGTCTGGATGTGCTA | -0.279

Series 4
Target: Histone acetyltransferase KAT6A, winged helix 1, GST fusion (KAT6A, Homo sapiens, UniProt Q92794, residues 1-85)
Technique: protein binding microarray
Form: double-stranded DNA, one strand shown
Sample: in vitro
Concentration: not given
Setting: 8-mer, flanks averaged, mean of 2 arrays, mostly near background
Reference: not given
Reading: higher = stronger binding
Residues (chain): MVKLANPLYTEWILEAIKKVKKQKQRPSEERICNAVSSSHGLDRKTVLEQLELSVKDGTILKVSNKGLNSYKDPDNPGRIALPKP
Oligonucleotide | E-score
ACGACTCC | -0.158
GTCTAAAC | -0.0653
CCCAGTAC | -0.212
GCTGGTCA | -0.0102
CAGTAGAA | -0.339
CTCATGAC | -0.0317
ACTACAAG | -0.0959
CATGGGAC | -0.135
AGATGGTC | -0.174
TAAAGAAA | -0.135
GGAGACCC | 0.029
ACACGGAA | 0.212
AGTAAAGA | -0.0287
CGATCTGA | -0.124
ATAGCTAT | -0.007
CCACTAAG | -0.151
ATCAAATG | -0.0963

A few entries again (series 1):
Oligonucleotide | E-score
CCAACACA | 0.258
GTGGGGTA | 0.324
ATGACAAC | 0.253
GGTAAAGA | 0.251
